Measured values collected from several papers.
A part holds a random share of what one study measured.

Study 1 — method: RNA Bind-n-Seq; form: RNA; medium: in vitro; tested at: 365 nM; relative to: no-protein control; direction: higher = stronger binding
Target: RNA binding protein fox-1 homolog 2, RRM domain, GST-SBP tag (RBFOX2, Homo sapiens, UniProt O43251-10, residues 100-194)
Notes: natural RNA segment, single round, ends assumed
Residues (chain): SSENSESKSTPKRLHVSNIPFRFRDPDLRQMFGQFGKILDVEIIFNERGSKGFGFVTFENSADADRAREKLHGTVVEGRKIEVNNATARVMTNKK
| Sequence | RBNS enrichment (R) |
| --- | --- |
| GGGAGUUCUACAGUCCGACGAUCAAAGGAGACAUUCUGGCAAAGCCAAUCUGCUUAAAGGCAAAGUCCAGAACCUGGAACCUAGAGGCCUUUCUCUCUGCACGAAAAACAGGUAGUUUGCAGUCUGAGAUAUGUGGAAUUCUCGGGUGCCAA | 4.04 |
| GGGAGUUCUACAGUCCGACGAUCUGACUCUUGAUGGAAAGACUUAAGAAGAUCAAGGUCUCACCAUUUGUCCUCAAUUCGUGUGACCAUAAGAUACUGAUAGCAUUGAGUCUUGAAAUGAUUUAAUAAUAUGAUGGAAUUCUCGGGUGCCAA | 0.341 |
| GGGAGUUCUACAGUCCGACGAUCGAGAGCAGGGGUUUGAAGCCAGCUGUCGAAGAGCAUCCCUGCUGUCUUAAGAAGCUUUUUCCCCAUAGUGCCUAUAGUUUCCAAAGAAACUCAACUUCCUAACUGUGUUAUGGAAUUCUCGGGUGCCAA | 0.341 |
| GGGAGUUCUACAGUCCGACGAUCCAGUCACCAUGUUGUCAAACCUUAAUAAUGCACCUCAUGUAUUAGUCACAAUAAAAAUCAGAACUCAUUAGGCUUCCCUUCUCAUUCAGAAUGCUUCAGAAAACAAUUCCUGGAAUUCUCGGGUGCCAA | 0.362 |
| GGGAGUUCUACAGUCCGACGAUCUUGAACAUUCUUAAAGUAUCUCGUGGUAUAAUUUCUGUUGACUUCAAGCUUUAAUUUGGAUCCACACCUACAGCUGACCCAAAUGUCUCCUCUGUAGUCAUCUUAUUUGGUGGAAUUCUCGGGUGCCAA | 0.316 |
| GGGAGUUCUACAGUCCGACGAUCGGAAGGGCCUGGACAGUGUCUUGGUUUCACUGUUUUAUUUUAUUUUAUUUUUUAACUAAAGCUAUAUAAAGCUUGUGGAUUAAACAGAAUAAAUUUCUAAAUUUAAGAACUGGAAUUCUCGGGUGCCAA | 0.572 |
| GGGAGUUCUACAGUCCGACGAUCACUCUGUAAAAUUCACAGCAGUAAAUAUUGUUUUGUUGAAUGUAUUAACAUCUUAUGGUCUGAAAAUGUGGGUUUUUAUUUGACACGUUUAAAUAAAAUGUUUCUAACUAUGGAAUUCUCGGGUGCCAA | 0.6 |
| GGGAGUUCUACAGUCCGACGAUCGUAAAGGGACAAACCGAGGAAGUAGAGGAAGCUGCGGCACUGUGACCCAUUCAAGGCUAGCACAGUUAAGAGAACUUCAGCUAAUUCUUAUUUUCCUGAGUUAGAUCCCAUGGAAUUCUCGGGUGCCAA | 0.345 |

Study 2 — method: RNA Bind-n-Seq; form: RNA; medium: in vitro; tested at: not given; relative to: input RNA pool; direction: higher = stronger binding
Target: RING finger protein unkempt homolog, zinc fingers 1-6, GST-SBP tag (UNK, Homo sapiens, UniProt Q9C0B0, residues 30-357)
Chain of UniProt Q9C0B0 (30-357, looked up): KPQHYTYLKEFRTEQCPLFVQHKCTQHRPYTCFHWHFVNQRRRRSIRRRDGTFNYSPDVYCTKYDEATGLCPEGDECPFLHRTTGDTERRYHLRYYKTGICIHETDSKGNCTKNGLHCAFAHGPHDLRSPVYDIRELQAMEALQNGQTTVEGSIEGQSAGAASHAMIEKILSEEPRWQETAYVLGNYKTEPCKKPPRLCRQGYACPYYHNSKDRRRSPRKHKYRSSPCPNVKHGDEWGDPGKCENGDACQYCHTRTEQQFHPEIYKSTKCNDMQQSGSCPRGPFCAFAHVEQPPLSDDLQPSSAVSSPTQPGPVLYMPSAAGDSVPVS
Notes: RNA with constant flanks, human-mouse chimeric sites, ends assumed
| Sequence | bound/input enrichment |
| --- | --- |
| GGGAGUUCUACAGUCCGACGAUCGGUGGGGUGGUCAUUGCGCCAAUUGAGGCUGAUUUUCAUGAGUCGCCUUCAAAACUCUCGUGUAGGGUUGACAAUGUGGGGGGGUGGGAAAUCUAGCUUAUUCUUUUAUUUUCAAGUCCACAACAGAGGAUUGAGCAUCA | 3.99 ratio |
| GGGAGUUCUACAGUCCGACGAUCUCCCUGUUGCUGAAUAAAUGGCUUGUAAAGAAGUUUUUCCAAGCUGUAACCCAUGCUGUUAUUAUAGUUGCUGCAAAAUGUUCUUCCUAUUGAUGUUUUUAUUUGUUAACUGAAGGUCUCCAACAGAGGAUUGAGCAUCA | 0.569 ratio |
| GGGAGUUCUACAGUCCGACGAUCUGUGCAUAUGAUGCUUGGAGAUGGUUUUGCAAAAGCAGAAAUCGCUGCAAGGUAAUCACAAUAGAUAAAAGUGGUAUUUUAAACCUUUGAAAGGAAUGGAUGUAACUGUACCUUGGUACACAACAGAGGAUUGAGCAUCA | 0.368 ratio |
| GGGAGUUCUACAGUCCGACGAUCAGAGCCCAGGAUGUUGAUGCUACAAACCCAAAUUACGAAAUUAUGUGUAUGAUCAGAGACUUCAGAGGAAGUUUGGAUUACAGACCCCUAACAACAGCAGAUCCUAUUGAUGAACAUAGGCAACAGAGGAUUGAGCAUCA | 0.494 ratio |
| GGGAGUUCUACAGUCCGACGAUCGCUGAAAAUGAAGAAGAGGCAGCUGAUGUCUGGUACAACUUGGGACACAUAGCUGUGGGAAUCGGAGAUACAAACUUGGCCCACCAAUGCUUCAGGCUGGCUCUGGUCCACAACAACCACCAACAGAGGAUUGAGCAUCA | 0.175 ratio |
| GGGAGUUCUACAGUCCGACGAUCAACUUCGUACAUAGAUUUCCCUUUGUAGCUGUUUCAAUUGGCUUCCUUGUGAAUAAAGAGAUGGAGUUUGGAAUUGUGUACAGCUGUGUGGAAGAUAAGAUGUACACUGCCAGAAAAGGGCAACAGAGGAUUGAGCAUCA | 0.785 ratio |
| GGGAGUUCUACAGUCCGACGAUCACACAAUAUGAGACCAACAGCAUGGACUUCAAAGUUGGGGCGGAUGGGACAGUCUUCGCCACCCGGGAGUUGAAGAUCCCCUCCGAGCAGGUGGCGUUCACGGUGACUGCAUGGGACAGCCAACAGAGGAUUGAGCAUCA | 0.501 ratio |
| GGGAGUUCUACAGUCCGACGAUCAUCAAAUACUUUGGGGACAUCAUUAGUGUGGGACAGAGACUGUUGCAAGGAGCUCGGAUCUUAGGGAUUCCUGUUAUCAUAACGGAACAAUACCCCAAAGGACUUGGCAGCACCGUUCAACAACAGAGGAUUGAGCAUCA | 0.199 ratio |

Study 3 — method: protein-binding microarray; form: double-stranded DNA, one strand shown; medium: in vitro; tested at: 2540 nM top; notes: 60-bp whole probe; with: salmon DNA 0.4 mg/ml; relative to: random background probes; direction: higher = stronger binding; shared flanks, not repeated: GCCTAGCAC … GTCTTGATTCGCTTGACGCTGCTG
Target: Interferon regulatory factor 3, full length, phosphomimetic (IRF3, Homo sapiens, UniProt Q14653, residues 1-427, S386D/S396D/S398D/S402D/T404D/S405D)
Target sequence (chain): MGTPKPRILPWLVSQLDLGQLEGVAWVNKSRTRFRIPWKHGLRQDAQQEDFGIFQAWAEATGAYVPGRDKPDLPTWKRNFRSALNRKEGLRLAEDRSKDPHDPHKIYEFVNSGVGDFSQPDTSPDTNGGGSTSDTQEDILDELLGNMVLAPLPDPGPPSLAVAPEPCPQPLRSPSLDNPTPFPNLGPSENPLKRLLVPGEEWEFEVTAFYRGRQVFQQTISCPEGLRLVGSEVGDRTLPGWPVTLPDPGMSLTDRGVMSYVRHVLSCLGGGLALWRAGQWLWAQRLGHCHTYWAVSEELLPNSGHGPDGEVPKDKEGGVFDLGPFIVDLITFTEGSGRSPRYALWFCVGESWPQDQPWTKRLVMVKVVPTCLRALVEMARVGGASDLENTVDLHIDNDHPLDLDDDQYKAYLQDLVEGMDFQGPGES
| Sequence | fitted relative affinity |
| --- | --- |
| GACGTTTTCAGTCTCGAGACGTGCTAG | 2.93 z-score |
| TCAGGTTTCGGTTCCGGTTAGTGCTAG | 11.1 z-score |
| TCAGGTATCCTACTGCTTTAGTGCTAG | 2.56 z-score |
| GCTGTTCTCAGACTGGGTGCGTGCTAG | 2.24 z-score |
| TCAACTTGGAATTTCCCACTGTGCTAG | 0.486 z-score |
| TTCTATGACTACATTGCAGCGTGCTAG | 0.0684 z-score |
| TTAGATCTCGGGTTTCGATTAGTGCTA | 1.54 z-score |
| TCAGGTATTTTTCTAAAACTGTGCTAG | 0.57 z-score |
| GACTGTATCGGGTATCGGGACGTGCTA | 1.71 z-score |
| ACCCGTACTGGGTCTGGATCGTGCTAG | -0.0949 z-score |
| TCAGGACTGGGGTTTCGGTTAGTGCTA | 2.55 z-score |
| GACGGTTTTCTTATCCTGACGTGCTAG | 3.17 z-score |
| GACGAGTTCGGGACTGGAGACGTGCTA | -0.406 z-score |
| AAATATTTACCTCTCACGCAGTGCTAG | 0.442 z-score |
| GACGAAATCGGGTTTCGAGACGTGCTA | 1.15 z-score |
| TTTGGTATCCTTTTCCTTTAGTGCTAG | 8.9 z-score |
| TCAACTTTCTTTTGCTTACTGTGCTAG | 1.33 z-score |
| GACGATATCAGTATCGATACGTGCTAG | 2.16 z-score |
| GACGATCTGGGGTTTCGAGACGTGCTA | 0.359 z-score |

Study 4 — method: protein binding microarray; form: double-stranded DNA, one strand shown; medium: in vitro; tested at: not given; relative to: not given; direction: higher = stronger binding
Target: Histone acetyltransferase KAT6A, both winged helices, GST fusion (KAT6A, Homo sapiens, UniProt Q92794, residues 1-181)
Notes: 8-mer, flanks averaged, mean of 2 arrays, mostly near background
Residues (chain): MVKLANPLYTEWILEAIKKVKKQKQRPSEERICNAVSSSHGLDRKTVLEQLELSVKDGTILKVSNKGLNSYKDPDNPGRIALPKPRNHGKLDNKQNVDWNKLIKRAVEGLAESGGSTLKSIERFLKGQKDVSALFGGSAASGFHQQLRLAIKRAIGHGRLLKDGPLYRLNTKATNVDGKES
| Sequence | E-score |
| --- | --- |
| CCTCTATA | -0.0965 |
| AAACGTTA | 0.059 |
| CTTGAAAA | -0.14 |
| GAACCCGC | 0.315 |
| ATGCTATA | -0.0377 |
| CGGAATCC | 0.0829 |
| CCGAAGGC | -0.00678 |
| ACCACCTA | -0.0865 |
| AATTTCGT | -0.0204 |
| AAGAACCC | -0.0568 |
| ATGACGTC | 0.163 |
| CACCTTAA | -0.0644 |
| GCAATCAC | 0.0913 |
| CAAATTTG | -0.00086 |
| ATAAGGTA | -0.124 |
| AGCCCTCG | -0.0878 |

A few entries again (study 3):
| Sequence | fitted relative affinity |
| --- | --- |
| GACTGTATCGGGTATCGGGACGTGCTA | 1.71 z-score |
| TCAGGTATCCTACTGCTTTAGTGCTAG | 2.56 z-score |
| GACGTTTTCAGTCTCGAGACGTGCTAG | 2.93 z-score |
| TCAACTTGGAATTTCCCACTGTGCTAG | 0.486 z-score |
| TCAGGACTGGGGTTTCGGTTAGTGCTA | 2.55 z-score |
| GACGAAATCGGGTTTCGAGACGTGCTA | 1.15 z-score |
| ACCCGTACTGGGTCTGGATCGTGCTAG | -0.0949 z-score |
